Results from different studies.
Protocols differ between the studies behind these lines. ± gives the spread as reported.
CRBN/Zinc finger protein Aiolos: CRBN/Zinc finger protein Aiolos (Homo sapiens, UniProt Q96SW2+Q9UKT9)
PNLIP: Pancreatic triacylglycerol lipase (PNLIP, Homo sapiens, UniProt P16233)
UniProt P16233, sequence (whole entry, looked up): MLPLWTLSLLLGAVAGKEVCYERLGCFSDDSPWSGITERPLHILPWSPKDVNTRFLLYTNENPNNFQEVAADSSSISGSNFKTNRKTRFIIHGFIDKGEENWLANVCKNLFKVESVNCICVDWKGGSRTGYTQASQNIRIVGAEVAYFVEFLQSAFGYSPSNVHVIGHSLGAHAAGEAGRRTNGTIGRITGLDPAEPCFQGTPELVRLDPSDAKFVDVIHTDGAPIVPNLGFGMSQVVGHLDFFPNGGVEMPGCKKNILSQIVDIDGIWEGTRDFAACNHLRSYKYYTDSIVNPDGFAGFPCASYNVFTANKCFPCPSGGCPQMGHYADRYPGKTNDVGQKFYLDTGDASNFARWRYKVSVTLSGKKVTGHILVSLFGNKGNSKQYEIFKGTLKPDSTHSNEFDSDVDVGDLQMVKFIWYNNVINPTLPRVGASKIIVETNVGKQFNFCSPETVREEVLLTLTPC
MAPK9: Mitogen-activated protein kinase 9 (MAPK9, Homo sapiens, UniProt P45984)
UniProt P45984, sequence (whole entry, looked up): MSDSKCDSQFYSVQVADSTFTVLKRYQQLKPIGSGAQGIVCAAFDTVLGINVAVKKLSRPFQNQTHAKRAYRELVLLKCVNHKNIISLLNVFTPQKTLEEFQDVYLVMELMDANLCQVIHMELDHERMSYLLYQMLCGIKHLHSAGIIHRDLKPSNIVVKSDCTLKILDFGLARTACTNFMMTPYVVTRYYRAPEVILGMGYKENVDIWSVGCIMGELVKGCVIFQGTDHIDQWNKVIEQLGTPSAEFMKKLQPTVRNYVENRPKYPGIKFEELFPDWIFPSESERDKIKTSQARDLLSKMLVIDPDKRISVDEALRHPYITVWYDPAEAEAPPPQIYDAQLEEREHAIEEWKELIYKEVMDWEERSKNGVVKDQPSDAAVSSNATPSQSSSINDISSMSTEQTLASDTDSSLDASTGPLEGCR
UniProt P45983, sequence (whole entry, looked up): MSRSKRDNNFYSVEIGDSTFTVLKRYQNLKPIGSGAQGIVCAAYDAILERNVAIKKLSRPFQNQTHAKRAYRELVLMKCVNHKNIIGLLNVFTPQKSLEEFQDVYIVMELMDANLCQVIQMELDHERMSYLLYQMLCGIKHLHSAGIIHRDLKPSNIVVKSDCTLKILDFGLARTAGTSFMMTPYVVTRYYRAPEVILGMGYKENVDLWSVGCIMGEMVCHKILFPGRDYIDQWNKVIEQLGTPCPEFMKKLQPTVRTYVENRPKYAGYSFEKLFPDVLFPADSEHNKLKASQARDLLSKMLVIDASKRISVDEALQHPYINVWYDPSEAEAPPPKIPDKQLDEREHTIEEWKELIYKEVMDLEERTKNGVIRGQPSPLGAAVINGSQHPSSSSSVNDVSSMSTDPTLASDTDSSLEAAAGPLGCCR
UniProt P36969, sequence (whole entry, looked up): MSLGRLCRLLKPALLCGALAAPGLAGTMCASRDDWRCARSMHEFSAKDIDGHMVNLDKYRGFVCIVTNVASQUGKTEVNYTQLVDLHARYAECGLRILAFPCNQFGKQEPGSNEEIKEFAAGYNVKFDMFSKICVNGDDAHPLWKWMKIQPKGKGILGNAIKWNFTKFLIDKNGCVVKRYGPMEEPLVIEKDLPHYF
UniProt O60566, sequence (whole entry, looked up): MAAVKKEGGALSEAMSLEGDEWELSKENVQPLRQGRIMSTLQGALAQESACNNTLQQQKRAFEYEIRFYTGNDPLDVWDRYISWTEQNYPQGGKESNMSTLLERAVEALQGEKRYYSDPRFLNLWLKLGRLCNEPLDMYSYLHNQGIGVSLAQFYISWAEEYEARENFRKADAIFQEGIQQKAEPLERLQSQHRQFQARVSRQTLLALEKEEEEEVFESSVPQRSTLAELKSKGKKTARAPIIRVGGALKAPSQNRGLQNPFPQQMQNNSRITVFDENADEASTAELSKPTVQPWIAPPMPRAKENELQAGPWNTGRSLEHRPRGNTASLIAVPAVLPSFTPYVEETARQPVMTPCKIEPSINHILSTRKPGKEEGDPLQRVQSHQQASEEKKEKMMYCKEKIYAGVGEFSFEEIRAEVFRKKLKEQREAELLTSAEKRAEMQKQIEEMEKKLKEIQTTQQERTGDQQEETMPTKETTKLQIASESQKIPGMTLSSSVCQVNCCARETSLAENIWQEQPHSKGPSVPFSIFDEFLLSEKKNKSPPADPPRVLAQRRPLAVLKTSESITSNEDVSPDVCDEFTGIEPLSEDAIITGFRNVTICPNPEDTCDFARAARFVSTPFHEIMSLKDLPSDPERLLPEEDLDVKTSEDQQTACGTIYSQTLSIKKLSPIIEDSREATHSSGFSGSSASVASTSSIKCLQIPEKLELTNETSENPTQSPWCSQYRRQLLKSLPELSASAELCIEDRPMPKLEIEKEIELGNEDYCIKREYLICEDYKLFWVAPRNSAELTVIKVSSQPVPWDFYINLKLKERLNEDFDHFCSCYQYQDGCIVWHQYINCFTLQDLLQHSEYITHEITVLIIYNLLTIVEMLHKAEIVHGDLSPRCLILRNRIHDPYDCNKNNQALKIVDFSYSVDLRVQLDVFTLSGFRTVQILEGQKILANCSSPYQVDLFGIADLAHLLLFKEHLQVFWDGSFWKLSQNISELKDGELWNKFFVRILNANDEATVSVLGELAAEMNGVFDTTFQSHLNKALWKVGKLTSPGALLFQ
UniProt P25774, sequence (whole entry, looked up): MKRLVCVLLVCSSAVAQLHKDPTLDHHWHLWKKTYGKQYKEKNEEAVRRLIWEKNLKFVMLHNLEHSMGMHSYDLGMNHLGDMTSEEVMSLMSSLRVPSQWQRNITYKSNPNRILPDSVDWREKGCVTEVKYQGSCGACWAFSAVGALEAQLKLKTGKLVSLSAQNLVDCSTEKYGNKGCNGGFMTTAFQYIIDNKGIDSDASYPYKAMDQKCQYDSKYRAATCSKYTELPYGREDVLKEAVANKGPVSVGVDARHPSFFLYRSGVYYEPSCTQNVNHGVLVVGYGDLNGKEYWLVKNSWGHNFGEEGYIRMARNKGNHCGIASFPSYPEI
UniProt Q9HB29, sequence (whole entry, looked up): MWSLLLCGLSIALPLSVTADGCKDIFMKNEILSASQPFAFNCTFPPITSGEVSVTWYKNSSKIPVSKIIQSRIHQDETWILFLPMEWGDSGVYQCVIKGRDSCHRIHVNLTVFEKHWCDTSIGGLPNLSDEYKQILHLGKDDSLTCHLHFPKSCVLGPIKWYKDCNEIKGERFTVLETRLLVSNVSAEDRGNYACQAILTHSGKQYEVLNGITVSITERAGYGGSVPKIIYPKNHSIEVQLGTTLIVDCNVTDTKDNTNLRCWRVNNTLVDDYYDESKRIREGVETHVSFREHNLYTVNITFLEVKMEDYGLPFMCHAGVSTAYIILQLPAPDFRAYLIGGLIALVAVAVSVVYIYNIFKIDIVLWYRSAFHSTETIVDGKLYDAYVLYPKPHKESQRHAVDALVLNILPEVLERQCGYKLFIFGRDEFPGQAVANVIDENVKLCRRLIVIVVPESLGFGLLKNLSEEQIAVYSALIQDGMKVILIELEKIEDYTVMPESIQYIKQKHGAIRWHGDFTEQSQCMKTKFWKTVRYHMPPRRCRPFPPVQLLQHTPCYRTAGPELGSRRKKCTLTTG
UniProt Q9P0G3, sequence (whole entry, looked up): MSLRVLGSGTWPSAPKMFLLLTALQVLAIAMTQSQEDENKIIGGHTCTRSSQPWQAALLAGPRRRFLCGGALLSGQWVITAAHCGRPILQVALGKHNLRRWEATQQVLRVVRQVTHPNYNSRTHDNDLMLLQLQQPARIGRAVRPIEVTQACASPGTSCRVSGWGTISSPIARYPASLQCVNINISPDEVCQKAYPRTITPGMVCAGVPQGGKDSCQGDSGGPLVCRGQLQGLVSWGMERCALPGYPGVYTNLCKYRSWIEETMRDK

SMILES | tested on | test | test system | setting | scale | endpoint | result
Cc1ccc2[c](c1)[Au-]([Cl])([Cl])[n+]1ccccc1-2 | GPX4 (Homo sapiens, UniProt P36969) | inhibitor, GR-coupled NADPH | – | up to 36.3 µM, post-incubation, added: enzyme 100 nM | – | remaining activity | 61.5%
CC[n+]1cccc2cc(/C=N/NC(=O)c3cncc(C(=O)N/N=C/c4ccc5c(ccc[n+]5CC)c4)n3)ccc21 | hp2 hairpin duplex DNA | FRET melting | – | 1 µM | – | ΔTm | 1.8 ± 0.1 °C
Nc1nc(Nc2ccccc2)sc1C(=O)c1ccccc1 | AMP-activated protein kinase | enzyme activity, inhibitor | – | 10 µM | – | remaining activity | 41%
O=C1CCC(N2C(=O)c3cccc4c(Cn5cc(C6CCNCC6)nn5)ccc2c34)C(=O)N1 (centres unmarked) | CRBN/Zinc finger protein Aiolos | protein level, degrader, western blot | NCI-H929 | 10 nM, 4 h | – | remaining activity | 42.7%
O=C1C=CC(=O)c2cc3ccccc3cc21 | PNLIP | enzyme activity, inhibitor, fluorescence | – | 50 µM | – | remaining activity | 6.17%
Cc1cc(NC(=O)c2cccc(N)c2)ccc1Nc1nccc(-c2cccnc2)n1 | MAPK9 | enzyme activity, inhibitor | – | 0.1829 µM, unit not given | relative to: vehicle | remaining activity | 0.863
Nc1ccc(O)c2c1C(=O)c1c(O)ccc(N)c1C2=O | PNLIP | enzyme activity, inhibitor, fluorescence | – | 50 µM | – | remaining activity | 7.9%
CC(C)(C)OCc1ccc(-c2ccc3ncnc(Nc4ccc(OCc5cccc(F)c5)c(Cl)c4)c3c2)cc1 | Leishmania major | intracellular amastigote growth, luciferase | RAW264.7 macrophages | – | – | EC50 | 4.1 µM
Cc1cnc2nc1Nc1cccc(c1)COC/C=C/COCc1cc(ccc1OCCN1CCOCC1)N2 | EGFR (Homo sapiens, UniProt P00533, del752-759) | – | – | concentration not given | relative to: untreated control | remaining activity | 97%
CC(C)(O)C(=O)N1CCC(n2cc(Cc3ccc4c5c(cccc35)C(=O)N4C3CCC(=O)NC3=O)cn2)CC1 (centres unmarked) | CRBN/Zinc finger protein Aiolos | protein level, degrader, western blot | NCI-H929 | 1 nM, 4 h | – | remaining activity | 35.3%
CN1C[C@@H](c2c[nH]c3cc(Br)ccc23)NC[C@@H]1c1c[nH]c2cc(Br)ccc12 | BUB1B (Homo sapiens, UniProt O60566) | enzyme activity, inhibitor | – | 10 µM | – | remaining activity | 97%
COc1cc(Nc2nc(C)cc(-c3cnn4nc(OC)ccc34)n2)cc(C(F)(F)F)c1 | PIK3CA (Homo sapiens, UniProt P42336, Q546K) | inhibitor | – | 1 µM | relative to: control | remaining activity | 66%
O=C1CCC(N2C(=O)c3cccc4c(Cc5cnn(C6CCN(C(=O)C7(O)CCC7)CC6)c5)ccc2c34)C(=O)N1 (centres unmarked) | CRBN/Zinc finger protein Aiolos | protein level, degrader, western blot | NCI-H929 | 1 nM, 4 h | – | remaining activity | 18.6%
COC(=O)CN1CCCc2cc3cc(C(=O)NC(Cc4ccc(C)cc4)C(=O)NCC=CS(=O)(=O)c4ccccc4)c(=O)oc3cc21 (centres unmarked) | Cathepsin S (CTSS, Homo sapiens, UniProt P25774) | inhibitor | – | 5 µM, 60 min, added: Z-Phe-Arg-AMC | relative to: uninhibited control | remaining activity | < 1%
CN(C)S(=O)(=O)c1ccccc1-c1ccc2ncnc(Nc3ccc(OCc4cccc(F)c4)c(Cl)c3)c2c1 | Leishmania major | intracellular amastigote growth, luciferase | RAW264.7 macrophages | – | – | EC50 | 18 µM
CC(C)[C@@H]1NC(=O)[C@H](Cc2ccccc2)NC(=O)CSC[C@@H](C(N)=O)NC(=O)[C@H](CCC(=O)O)NC(=O)[C@H](CO)NC(=O)[C@H](Cc2c[nH]c3cccc(Cl)c23)NC(=O)[C@H](C2CCCCC2)NC(=O)[C@H](C(C)C)NC(=O)[C@H](Cc2ccc(O)cc2)NC(=O)[C@H](CC(=O)O)NC(=O)[C@H](Cc2c[nH]c3ccccc23)NC(=O)[C@H](Cc2ccc(N)nc2)NC(=O)[C@H](Cc2c[nH]c3ccc(Cl)cc23)NC(=O)[C@H](CCC(=O)O)NC1=O | Interleukin-1 receptor-like 2 (IL1RL2, Homo sapiens, UniProt Q9HB29) | SEAP reporter gene, antagonist | HEK-Blue IL-36R cells | 33.33 µM, 6 h, added: IL-36 1 ng/mL | relative to: untreated | remaining activity | 2.4%
C[n+]1cc(/C=N/NC(=O)c2ccc3ccc4ccc(C(=O)N/N=C/c5cc6ccccc6[n+](C)c5)nc4c3n2)cc2ccccc21 | hp2 hairpin duplex DNA | FRET melting | – | 1 µM, added: ds26 10 µM | – | ΔTm | 0.6 ± 0.3 °C
COC(=O)[C@@]1(C(C)C)C=C(C(=O)Nc2cccc(C(=O)Nc3ccc(Nc4nccc(-c5cccnc5)n4)c(C)c3)c2)C(=O)CC1 | MAPK8 (Homo sapiens, UniProt P45983) | kinase activity, inhibitor | – | 0.1829 µM, unit not given, added: 10 mM glutathione | relative to: no inhibitor | remaining activity | 0.764
O=C1CCC(N2C(=O)c3cccc4c(Cc5cnn(C6CCNCC6)c5)ccc2c34)C(=O)N1 (centres unmarked) | CRBN/Zinc finger protein Aiolos | protein level, degrader, western blot | NCI-H929 | 1 nM, 4 h | – | remaining activity | 75.6%
C[C@](C(=O)NC1CCOCC1)(c1cncnc1)N(C(=O)[C@H](F)Cl)c1ccc(OC(F)(F)Cl)cc1 | Kallikrein-14 (Homo sapiens, UniProt Q9P0G3) | enzyme activity, inhibitor | – | 10 µM | – | remaining activity | 104%
C#CCOC(=O)[C@]1(C)C=C(C(=O)Nc2cccc(C(=O)Nc3ccc(C)c(Nc4nccc(-c5cccnc5)n4)c3)c2)C(=O)CC1 | MAPK9 | enzyme activity, inhibitor | – | 44.44 µM, unit not given | relative to: vehicle | remaining activity | 0.0409
O=C1CCC(N2C(=O)c3cccc4c(Cc5cnn(C6CCN(C(=O)C7(O)CC7)CC6)c5)ccc2c34)C(=O)N1 (centres unmarked) | CRBN/Zinc finger protein Aiolos | protein level, degrader, western blot | NCI-H929 | 100 pM, 4 h | – | remaining activity | 86.3%
CO[C@@H]1[C@@H](OC(=O)c2ccc(C)[nH]2)[C@@H](O)[C@H](Oc2ccc3c(O)c(NC(=O)c4c[nH]c(C(=O)Nc5c(O)c6ccc(O[C@@H]7OC(C)(C)[C@H](OC)[C@@H](OC(=O)c8ccc(C)[nH]8)[C@H]7O)c(C)c6oc5=O)c4C)c(=O)oc3c2C)OC1(C)C | Large T antigen (Simian virus 40, UniProt P03070) | fork unwinding | – | 250 µM | – | remaining activity | 1%
O=C1c2ccc(O)cc2C(=O)c2ccc(O)cc21 | PNLIP | enzyme activity, inhibitor, fluorescence | – | 50 µM | – | remaining activity | 8.34%
O=C1CCC(N2C(=O)c3cccc4c(Cc5cnn(C6CCN(C(=O)CS)CC6)c5)ccc2c34)C(=O)N1 (centres unmarked) | CRBN/Zinc finger protein Aiolos | protein level, degrader, western blot | NCI-H929 | 1 nM, 4 h | – | remaining activity | 102%
COC(=O)[C@@]1(C)C=C(C(=O)Nc2cccc(C(=O)Nc3ccc(Nc4nccc(-c5cccnc5)n4)c(C)c3)c2)C(=O)CC1 | MAPK9 | enzyme activity, inhibitor | – | 44.44 µM, unit not given | relative to: vehicle | remaining activity | 0.0476
N#Cc1cnc2sc(C(=O)O)cc2c1N1CCc2[nH]nc(C(=O)N[C@@H](CC(=O)NCCOCCN3CCOCC3)c3cccc(Br)c3)c2C1 | IL1R1 (Homo sapiens, UniProt P14778) | IL-8 release, antagonist | A-431 | 6 µM, 18 h, added: IL-1β 5 ng/mL | relative to: untreated | remaining activity | 87.4%
O=C1CCC(N2C(=O)c3cccc4c(Cc5ccc(CN6CCNCC6)nc5)ccc2c34)C(=O)N1 (centres unmarked) | CRBN/Zinc finger protein Aiolos | protein level, degrader, western blot | NCI-H929 | 10 nM, 4 h | – | remaining activity | 55.7%
Cc1ccc(Nc2ccc(O)c3c2C(=O)c2ccccc2C3=O)cc1 | PNLIP | enzyme activity, inhibitor, fluorescence | – | 50 µM | – | remaining activity | 23.6%
